# Experimental data pooled from the literature.
# Values joined by “and” are separate records of one study, mostly repeats; a detail may differ. ± marks the error that the study gave.
# UniProt P21917, sequence (whole entry, unmodified, looked up): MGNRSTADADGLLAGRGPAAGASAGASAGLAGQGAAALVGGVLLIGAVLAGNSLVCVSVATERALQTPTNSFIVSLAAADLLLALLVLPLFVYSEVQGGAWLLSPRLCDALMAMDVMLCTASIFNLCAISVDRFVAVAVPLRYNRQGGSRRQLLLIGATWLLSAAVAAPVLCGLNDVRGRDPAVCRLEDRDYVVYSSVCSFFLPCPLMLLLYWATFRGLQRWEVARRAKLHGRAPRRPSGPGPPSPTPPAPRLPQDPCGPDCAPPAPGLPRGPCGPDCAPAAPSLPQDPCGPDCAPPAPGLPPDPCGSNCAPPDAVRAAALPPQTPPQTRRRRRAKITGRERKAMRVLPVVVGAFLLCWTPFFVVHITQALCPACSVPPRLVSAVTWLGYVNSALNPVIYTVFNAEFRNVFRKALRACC
# UniProt Q8IVT5, sequence (whole entry, looked up): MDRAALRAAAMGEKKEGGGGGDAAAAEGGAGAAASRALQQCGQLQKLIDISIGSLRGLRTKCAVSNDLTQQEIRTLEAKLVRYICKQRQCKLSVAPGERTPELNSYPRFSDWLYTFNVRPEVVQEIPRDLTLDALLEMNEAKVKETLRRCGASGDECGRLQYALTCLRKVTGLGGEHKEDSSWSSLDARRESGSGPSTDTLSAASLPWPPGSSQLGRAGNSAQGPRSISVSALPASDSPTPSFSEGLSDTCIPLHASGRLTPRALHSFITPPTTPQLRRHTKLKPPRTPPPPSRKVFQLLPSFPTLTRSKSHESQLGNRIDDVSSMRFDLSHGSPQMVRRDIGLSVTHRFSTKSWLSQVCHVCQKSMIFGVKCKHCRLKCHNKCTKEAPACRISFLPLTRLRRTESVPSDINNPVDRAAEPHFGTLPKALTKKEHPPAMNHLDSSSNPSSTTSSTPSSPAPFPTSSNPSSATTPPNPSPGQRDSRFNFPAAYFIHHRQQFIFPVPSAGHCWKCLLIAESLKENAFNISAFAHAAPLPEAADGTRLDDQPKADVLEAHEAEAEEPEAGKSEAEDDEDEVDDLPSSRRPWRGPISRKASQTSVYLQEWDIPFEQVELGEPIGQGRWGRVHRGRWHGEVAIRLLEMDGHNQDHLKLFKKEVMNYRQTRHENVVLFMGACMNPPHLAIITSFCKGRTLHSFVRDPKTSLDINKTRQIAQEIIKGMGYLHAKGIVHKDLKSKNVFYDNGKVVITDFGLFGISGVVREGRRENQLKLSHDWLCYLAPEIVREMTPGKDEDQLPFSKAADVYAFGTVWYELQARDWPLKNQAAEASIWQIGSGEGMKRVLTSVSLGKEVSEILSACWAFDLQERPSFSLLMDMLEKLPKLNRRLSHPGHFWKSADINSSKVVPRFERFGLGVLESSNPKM
Compound,target or system,assay,test system,setting,scale,quantity,result
CN[C@H](CC(C)C)C(=O)N[C@H]1C(=O)N[C@@H](CC(N)=O)C(=O)N[C@H]2C(=O)N[C@H]3C(=O)N[C@H](C(=O)N[C@H](C(=O)O)c4cc(O)cc(O)c4-c4cc3ccc4O)[C@H](O)c3ccc(c(Cl)c3)Oc3cc2cc(c3O[C@@H]2O[C@H](CO)[C@@H](O)[C@H](O)[C@H]2O[C@H]2C[C@](C)(N)[C@H](O)[C@H](C)O2)Oc2ccc(cc2Cl)[C@H]1O,Staphylococcus aureus,,"CAAS-2019-CAAS-2019-11 clinical drug-resistant isolate, PBS",,,MBC,4 µg/mL
c1ccc(-n2nncc2-c2cc3ccc2CCc2ccc(cc2)CC3)cc1,Schistosoma mansoni,microscopic viability scoring,newly transformed schistosomula,"10 µM, 72 h, prescreen",,viability reduction,17.2%
CC[C@H](C)[C@H](NC(=O)[C@H](C)NC(=O)[C@H](CCCCN)NC(=O)[C@H](CC(C)C)NC(=O)[C@H](C)NC(=O)[C@@H](NC(=O)[C@H](Cc1c[nH]cn1)NC(=O)[C@H](CC(C)C)NC(=O)[C@@H](NC(=O)[C@@H](NC(=O)[C@H](CCCCN)NC(=O)[C@H](C)NC(=O)[C@H](C)NC(=O)[C@H](CO)NC(=O)[C@H](CCCCN)NC(=O)[C@H](Cc1ccccc1)NC(=O)[C@@H](NC(=O)[C@H](CCCCN)NC(=O)[C@H](CC(C)C)NC(=O)[C@H](Cc1ccccc1)NC(=O)[C@H](CO)NC(=O)[C@H](CCCCN)NC(=O)[C@H](Cc1c[nH]c2ccccc12)NC(=O)[C@H](CCCCN)NC(C)=O)[C@@H](C)O)[C@@H](C)O)C(C)C)[C@@H](C)O)C(=O)N[C@@H](CO)C(=O)N[C@@H](CO)C(N)=O,Streptococcus pyogenes,,erythromycin-sensitive,21 strains,,MIC90,32 µg/mL
COc1cccc(C(=O)NN(C(=O)c2cc(C)cc(C)c2)C(C)(C)C)c1C,Anopheles coluzzii,,pyrethroid-resistant,"topical, 0.4 %",reference: control,adult lifespan,decreased
COc1cnc(OC)n2nc(NS(=O)(=O)c3c(OCC(F)F)cccc3C(F)(F)F)nc12,Arabidopsis thaliana,,"Col-0, seed germination, dark","200 µg/mL, 7 days, 22 °C",,root length inhibition,100%
CNC(C)C1CCC(N)C(OC2C(N)CC(N)C(OC3OCC(C)(O)C(NC)C3O)C2O)O1 (centres unmarked),Proteus mirabilis,broth microdilution,,,,MLC,4 ± 1 µg/mL
NC(=O)c1nc(F)c[nH]c1=O,Dengue virus,viral replication,"BHK-21, DENV4",120 h,,EC50,5200 nM
CS(=O)(=O)CCCn1c(Cn2c(=O)n(CC(F)(F)F)c3ccncc32)cc2cc(Cl)ccc21,respiratory syncytial virus,RT-qPCR,"hospitalized infants 1-24 months, nasal swab","oral, 1-9 mg/kg daily, day 6, all doses combined",reference: baseline,LS mean viral load change,-3.86 log10 copies/mL
C[N+](C)(C)CCCCCCN(CCCCCC[N+](C)(C)C)c1ccc(/C=C/c2ccc(/C=C/c3ccc(/C=C/c4ccc(N(CCCCCC[N+](C)(C)C)CCCCCC[N+](C)(C)C)cc4)cc3)cc2)cc1,Schistosoma mansoni,microscopic viability scoring,newly transformed schistosomula,"10 µM, 72 h, prescreen",,viability reduction,48.3%
Cc1c2c(nn1C)CSCc1cc(n(C)n1)CSc1cc(c3ccccc3c1)OCCCc1c(C(=O)O)n(C)c3c-2c(Cl)ccc13,Staphylococcus aureus,"label-free quantitative proteomics, item: SAOUHSC_01833 protein",SA113,concentration not given,reference: untreated control,fold change,46.9
Cn1c(=O)ccc2ccc(F)c(CCNC[C@H]3CN(c4cnc5c(n4)NC(=O)CO5)C(=O)O3)c21,Shigella spp.,,,,,MIC50,0.03 µg/mL
C[C@@H](O[C@H]1OCCN(Cc2n[nH]c(=O)[nH]2)[C@H]1c1ccc(F)cc1)c1cc(C(F)(F)F)cc(C(F)(F)F)c1,Human immunodeficiency virus 1,viral replication,"PBMC, subtype H isolate BCF-KITA, R5, NSI",,,IC50,5970 nM
CC(=O)N[C@H]1[C@@H](O[C@@H]2O[C@H](C[C@@H](O)[C@H]3O[C@@H](n4ccc(=O)[nH]c4=O)[C@H](O)[C@@H]3O)[C@H](O)[C@H](O)[C@H]2NC(=O)/C=C/CCCCCCCCCC(C)C)O[C@H](CO)[C@@H](O)[C@@H]1O,Cryptococcus gattii,alamar blue,C17,,,MIC50,< 0.1 µg/mL
CC[C@H](C)[C@H](NC(=O)[C@H](Cc1ccccc1)NC(=O)[C@H](CCC(=O)O)NC(=O)[C@H](CCCNC(=N)N)NC(=O)[C@H](C)NC(=O)[C@H](C)NC(=O)[C@H](CCC(N)=O)NC(=O)[C@H](CCC(=O)O)NC(=O)[C@H](CCC(=O)O)NC(=O)[C@H](CC(C)C)NC(=O)[C@H](Cc1ccc(O)cc1)NC(=O)[C@H](CO)NC(=O)[C@H](CO)NC(=O)[C@@H](NC(=O)[C@H](CC(=O)O)NC(=O)[C@H](CO)NC(=O)[C@@H](NC(=O)[C@H](Cc1ccccc1)NC(=O)[C@@H](NC(=O)CNC(=O)[C@H](CCC(=O)O)NC(=O)[C@H](C)NC(=O)CCc1c[nH]cn1)[C@@H](C)O)[C@@H](C)O)C(C)C)C(=O)N[C@@H](C)C(=O)N[C@@H](Cc1c[nH]c2ccccc12)C(=O)N[C@@H](CC(C)C)C(=O)N[C@H](C(=O)N[C@@H](CCCNC(=N)N)C(=O)NCC(=O)N[C@@H](CCCNC(=N)N)C(=O)N[C@@H](CCCCNC(=O)COCCOCCNC(=O)COCCOCCNC(=O)CC[C@H](NC(=O)CCCCCCCCCCCCCCCCC(=O)O)C(=O)O)C(=O)NCC(=O)NCC(=O)N[C@@H](CO)C(=O)N[C@@H](CCCCNc1c(NCCCCCN(O)C(=O)CCC(=O)NCCCCCN(O)C(=O)CCC(=O)NCCCCCN(O)C(C)=O)c(=O)c1=O)C(=O)O)C(C)C [zirconium-89 labelled],,,"rat, pancreas","iv, 3 nmol/kg, 72 h, ex vivo",,tissue uptake,0.32 %ID/g
C[C@@H]1C[C@H](O)[C@]2(O)O[C@@H]3C[C@@]4(C)[C@@H](CC[C@@H]5[C@@H]4CC[C@]4(C)[C@@H](C6=CC(=O)OC6)CC[C@]54O)C[C@H]3O[C@@H]2O1,Schistosoma mansoni,"viability, microscopic viability score",adult worms,72 h,,IC50,220 nM and 200 nM
CC1(C)SC2C(NC(=O)C(NC(=O)C3=C(O)C(Cc4ccc(F)cc4)NC3=O)c3ccccc3)C(=O)N2C1C(=O)O (centres unmarked),Escherichia coli,broth microdilution,Keio mutant JW5086-3,"18 h, ferrienterobactin permease gene",,MIC,12.5 µg/mL
CC[C@H](C)[C@H](NC(=O)[C@H](CCCNC(=N)N)NC(=O)[C@H](Cc1c[nH]c2ccccc12)NC(=O)[C@H](CCCNC(=N)N)NC(=O)[C@H](Cc1c[nH]c2ccccc12)NC(=O)[C@H](Cc1c[nH]c2ccccc12)NC(=O)[C@H](Cc1c[nH]c2ccccc12)NC(=O)[C@H](CCCNC(=N)N)NC(=O)[C@H](Cc1c[nH]c2ccccc12)NC(=O)[C@@H](N)CCCNC(=N)N)C(N)=O,Candida albicans,broth microdilution,"alveolar fluid isolate, RPMI 1640-MOPS","48 h, 30 °C",,MIC,16 µM
CC[C@H](C)[C@@H]1NC(=O)[C@@H]2CCCN2C(=O)[C@H](CC(C)C)NC(=O)[C@H](CC(C)C)NC(=O)CNC(=O)[C@@H](NC(=O)[C@@H](NC(=O)[C@H](CC(=O)O)NC(=O)CNC(=O)[C@@H](NC(=O)[C@H](C)NC(=O)CNC(=O)[C@H](CCCCN)NC(=O)[C@H](CC(C)C)NC(=O)[C@H](CC(C)C)NC(=O)[C@H](CCCCN)NC(=O)CNC(=O)[C@@H](NC(=O)[C@@H](N)CC(C)C)C(C)C)C(C)C)C(C)C)CSSC[C@@H](C(=O)O)NC1=O,,"RNA-seq, item: Prss16","mouse, traumatic brain injury model, frontal cortex and hippocampus",dose not given,reference: TBI alone,log2 fold change,-2.2
O=S(=O)(c1nc2ccccc2s1)C(F)c1ccccc1Br (centres unmarked),Schistosoma mansoni,microscopic viability scoring,newly transformed schistosomula,"10 µM, 72 h, prescreen",,viability reduction,86.2%
CC[C@@]1(O)C(=O)OCc2c1cc1n(c2=O)Cc2cc3cc(O)ccc3nc2-1,Bovine alphaherpesvirus 1,viral replication,MDBK,,,IC50,41 nM
C[C@H]1CN(c2n[nH]c3nc(N[C@H]4CC[C@H](NS(=O)(=O)CCC(F)(F)F)CC4)ncc23)CCO1,"KSR1 (Homo sapiens, UniProt Q8IVT5)","inhibitor, Kinobeads competition profiling",,0.16 µM,reference: vehicle,relative abundance,0.97
CO[C@H]1C[C@@H]2CC[C@@H](C)[C@@](O)(O2)C(=O)C(=O)N2CCCC[C@H]2C(=O)O[C@H]([C@H](C)C[C@@H]2CC[C@@H](OC(=O)NCCOCCOCCOCCOCCOCCOCCOCCOCCC(=O)N3CCc4cc(Cn5nc(-c6ccc7oc(N)nc7c6)c6c(N)ncnc65)ccc4C3)[C@H](OC)C2)C[C@@H](O)[C@H](C)/C=C(\C)[C@@H](O)[C@@H](OC)C(=O)[C@H](C)C[C@H](C)/C=C/C=C/C=C/1C,,"phase 1 dose escalation, item: decreased appetite",advanced solid tumour patients,"intravenous, 10 mg weekly, any grade",,TRAE incidence,12.5%
CC(C)C[C@H](NC(=O)[C@H](CCN)NC(=O)[C@H](CCN)NC(=O)[C@@H](Cc1ccccc1)NC(=O)[C@H](CC(C)C)NC(=O)[C@H](CCN)NC(=O)[C@H](CCN)NC(=O)[C@@H](CCN)NC(=O)[C@@H](N)CSCCOC(=O)c1ccccc1)C(N)=O,Acinetobacter calcoaceticus,BHI agar spot plating,,"24 h, 37 °C",,MBC,> 128 µM
Nc1ncnc2c1ncn2[C@@H]1O[C@@H]2COP(=O)(O)O[C@H]3[C@@H](O)[C@H](n4cnc5c(=O)[nH]cnc54)O[C@@H]3COP(=O)(O)O[C@H]2[C@H]1O,West Nile virus,"RNA sequencing, item: peptide ligand-binding receptors R-HSA-375276",HFF-1 cells,"concentration not given, upregulated pathway",reference: WNV-infected untreated cells,fold enrichment,2.66
CCOC(=O)c1nnc2c3ccccc3c3ccccc3c2n1,Schistosoma mansoni,microscopic viability scoring,newly transformed schistosomula,"10 µM, 72 h, prescreen",,viability reduction,9.4%
CCCCc1ccc(CNc2nc(N(C)C)nc(N(C)C)c2/N=N/c2ccc(Cl)cc2)cc1,Ostrinia furnacalis,leaf dipping,,6.25 mg/L,,mortality,33.3%
COc1cc(-c2c(C)cc(O)cc2O[C@@H]2O[C@H](CO)[C@@H](O)[C@H](O)[C@H]2O)oc(=O)c1,Bovine alphaherpesvirus 1,viral replication,MDBK,,,IC50,21 nM
COC(=O)c1ccc(S(=O)(=O)N(Cc2ccc(Cl)cc2)c2cc(C3CCCCC3)nc3ccccc23)cc1,Schistosoma mansoni,microscopic viability scoring,newly transformed schistosomula,"10 µM, 72 h, prescreen",,viability reduction,9.4%
N=C(N)NCCC[C@H](NC(=O)CCCCCNC(=O)[C@H](CCCNC(=N)N)NC(=O)[C@H](CCCNC(=N)N)NC(=O)CCCCCNC(=O)[C@H](CCCNC(=N)N)NC(=O)[C@H](CCCNC(=N)N)NC(=O)CCCCCNC(=O)[C@H](CCCNC(=N)N)NC(=O)[C@H](CCCNC(=N)N)NC(=O)CCCCCNC(=O)[C@@H](N)CCCNC(=N)N)C(=O)NCCCCCC(=O)NCCC(=O)O,Escherichia coli,,ATCC 25922,"1 h, 37 °C, after 12.5% human serum",,MIC,96 µM
Cn1cc2c3c1C(=O)C(N)=CC3=[N+](C)CC2,Saccharomyces cerevisiae,"cell growth, liquid culture",BY4741,"100 µM, 24 h",,inhibition,1.9%
COc1ccc(C[C@H](NC(=O)[C@H](C)NC(=O)CN2CCOCC2)C(=O)N[C@@H](Cc2ccccc2)C(=O)C2(C)CO2)cc1 (stereo in doubt),Plasmodium falciparum,parasite growth,various incl. drug-resistant strains,,,IC50,< 50 nM
COc1cc(Nc2ncc(F)c(Nc3ccc4c(n3)NC(=O)C(C)(C)O4)n2)cc(OC)c1OC,"DRD4 (Homo sapiens, UniProt P21917, del265-296)",,,,,IC50,> 10000 nM
C[C@]12CCC(=O)C[C@H]1CC[C@@H]1[C@@H]2CC[C@]2(C)[C@@H](C3=CC(=O)OC3)CC[C@]12O,Schistosoma mansoni,microscopic viability score,newly transformed schistosomula,"10 µM, 72 h",,viability reduction,24.4%
CCc1cccc(C)c1N(C(=O)CCl)[C@@H](C)COC,Lolium multiflorum,,,2.1 µg/mL,,germination,0%
COc1ccc(S(=O)(=O)Nc2ccc3c(c2)C(=O)C(=O)c2cc(NS(=O)(=O)c4ccc(OC)c(OC)c4)ccc2-3)cc1OC,Schistosoma mansoni,microscopic viability scoring,newly transformed schistosomula,"10 µM, 72 h, prescreen",,viability reduction,26.7%
Nc1ncnc2c([C@@H]3N[C@H](CO)[C@@H](O)[C@H]3O)c[nH]c12,Rhinovirus A,viral replication,HRV2 HGP,3 µM,,inhibition,51.3%
COC(=O)N[C@H](C(=O)N1CCC[C@H]1c1ncc(-c2ccc(-c3ccc(-c4cnc([C@@H]5CCCN5C(=O)[C@@H](NC(=O)OC)C(C)C)[nH]4)cc3)cc2)[nH]1)C(C)C,Hepatitis C virus,,replicon cells,"75% effect level, with: NS5B inhibitor, ratio 2.5:1",,combination index,0.7
C[C@]12CC[C@@H]3c4ccc(O)cc4CC[C@H]3[C@@H]1CC[C@@H]2O,Arabidopsis thaliana,"qRT-PCR, item: NCED3",,"1 µM, unit not given",reference: untreated,mRNA level,0.823 and 0.891

# A few entries again:
Compound,target or system,assay,test system,setting,scale,quantity,result
Nc1ncnc2c1ncn2[C@@H]1O[C@@H]2COP(=O)(O)O[C@H]3[C@@H](O)[C@H](n4cnc5c(=O)[nH]cnc54)O[C@@H]3COP(=O)(O)O[C@H]2[C@H]1O,West Nile virus,"RNA sequencing, item: peptide ligand-binding receptors R-HSA-375276",HFF-1 cells,"concentration not given, upregulated pathway",reference: WNV-infected untreated cells,fold enrichment,2.66
CCOC(=O)c1nnc2c3ccccc3c3ccccc3c2n1,Schistosoma mansoni,microscopic viability scoring,newly transformed schistosomula,"10 µM, 72 h, prescreen",,viability reduction,9.4%
CCCCc1ccc(CNc2nc(N(C)C)nc(N(C)C)c2/N=N/c2ccc(Cl)cc2)cc1,Ostrinia furnacalis,leaf dipping,,6.25 mg/L,,mortality,33.3%
COc1cc(-c2c(C)cc(O)cc2O[C@@H]2O[C@H](CO)[C@@H](O)[C@H](O)[C@H]2O)oc(=O)c1,Bovine alphaherpesvirus 1,viral replication,MDBK,,,IC50,21 nM
COC(=O)c1ccc(S(=O)(=O)N(Cc2ccc(Cl)cc2)c2cc(C3CCCCC3)nc3ccccc23)cc1,Schistosoma mansoni,microscopic viability scoring,newly transformed schistosomula,"10 µM, 72 h, prescreen",,viability reduction,9.4%
